Published values from different studies.
Each numbered part is a random draw from the data of one study; scales do not carry over between parts.

Series 1
Target: TAR DNA-binding protein 43, full length, His tag (TARDBP, Homo sapiens, UniProt Q13148, residues 1-414)
Technique: RNA Bind-n-Seq
Molecule type: RNA
Matrix: in vitro
Concentration: 20 nM
Notes: 6-mer, flanks averaged, single round
Together with: 150 mM LiCl
Baseline: input library
Reading: higher = stronger binding
Quantity: 6-mer enrichment (R)
AGAGAU: 0.919
GCUGGA: 0.973
UCGUCA: 0.924
CACUCU: 0.873
GCCUGG: 1.01
UUACUU: 0.994
GCGGAC: 1.07
AGACAC: 0.9
CGCUGG: 0.929
GUCAUC: 0.845
AGCAGC: 0.939

Series 2
Target: Sal-like protein 4, full length isoform B (SALL4, Homo sapiens, UniProt Q9UJQ4-2, residues 1-616)
Technique: universal PBM
Molecule type: double-stranded DNA, one strand shown
Matrix: in vitro
Concentration: not given
Notes: 8-mer, flanks averaged, mean of replicates
Reading: higher = stronger binding
Quantity: E-score
Target sequence (chain): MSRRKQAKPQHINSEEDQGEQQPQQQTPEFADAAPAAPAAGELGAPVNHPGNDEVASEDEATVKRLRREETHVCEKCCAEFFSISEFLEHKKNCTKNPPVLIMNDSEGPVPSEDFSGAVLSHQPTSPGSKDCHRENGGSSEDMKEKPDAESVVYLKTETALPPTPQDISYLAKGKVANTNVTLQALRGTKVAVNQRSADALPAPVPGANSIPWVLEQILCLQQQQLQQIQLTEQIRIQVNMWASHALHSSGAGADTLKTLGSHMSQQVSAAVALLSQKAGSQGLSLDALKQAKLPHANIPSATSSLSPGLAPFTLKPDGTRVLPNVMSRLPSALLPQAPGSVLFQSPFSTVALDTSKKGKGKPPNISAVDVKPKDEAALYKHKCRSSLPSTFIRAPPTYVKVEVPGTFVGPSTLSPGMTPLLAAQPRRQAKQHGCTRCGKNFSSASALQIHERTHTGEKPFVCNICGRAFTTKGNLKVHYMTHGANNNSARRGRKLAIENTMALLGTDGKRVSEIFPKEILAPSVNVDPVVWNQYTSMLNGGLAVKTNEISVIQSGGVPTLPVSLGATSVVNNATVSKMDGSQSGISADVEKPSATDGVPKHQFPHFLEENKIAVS
ACATACCA: 0.0276
TAGGGGGA: -0.0694
ACAGTACA: 0.145
AGTGGAAC: 0.0144
CAGCCTAA: -0.0533
ATTGTAGC: 0.135
AGATGCAT: 0.0526
AGGACGGC: -0.221
CATACAGG: 0.163
ATTGCTCC: -0.103
ACTCTGGG: -0.12

Series 3
Target: Centromere-binding protein 1, full length, N-terminal tag (CBF1, Saccharomyces cerevisiae, UniProt P17106, residues 1-351)
UniProt P17106, sequence (whole entry, looked up): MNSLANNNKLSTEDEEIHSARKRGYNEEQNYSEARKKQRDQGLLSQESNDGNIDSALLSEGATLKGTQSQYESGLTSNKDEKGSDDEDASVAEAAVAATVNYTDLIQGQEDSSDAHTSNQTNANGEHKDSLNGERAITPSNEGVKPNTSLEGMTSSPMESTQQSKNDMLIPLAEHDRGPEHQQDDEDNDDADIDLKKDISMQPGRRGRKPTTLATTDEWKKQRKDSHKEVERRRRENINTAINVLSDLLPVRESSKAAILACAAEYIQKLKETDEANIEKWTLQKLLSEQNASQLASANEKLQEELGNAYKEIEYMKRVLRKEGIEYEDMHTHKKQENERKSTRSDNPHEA
Technique: protein-binding microarray
Molecule type: double-stranded DNA, one strand shown
Matrix: in vitro
Concentration: 0.8 µM
Notes: whole 60-bp probe, no competitor
Reading: higher = stronger binding
Quantity: fluorescence intensity
Constant ends, left off below: … GTCTTGATTCGCTTGACGCTGCTG
GAACAATGCCTCGGAAACCTGATGACGAATTGCTAG: 527 a.u.
CCTAACTACTATACCAGTGTGACATAGCTTCGTACA: 578 a.u.
CTAAAGATTCTTGTTCATGTGATACAGCTTTTCTTC: 1950 a.u.
CTATATAAGAATCACCACGTTTCAGGTCTCCAATTC: 564 a.u.
CTACTTTACTTACACCACCAAAAACCACTTTCGTTC: 567 a.u.
CTACGTTCAGGGGTCCATGTGCCTTGGACGATATTC: 584 a.u.
GAAGAACCGACGATCCTCGTGAGGCTTGCTTGGTAG: 527 a.u.
TGTACGAAGCTATTTAGTGTGATTATAGTAGTTAGG: 523 a.u.
CTATGCTCAAACGGTCGCGTGCTGAGCGGAACGTTC: 793 a.u.
CTAATTTGATTAGGTGATGAGACAAATAGTTTCTTC: 513 a.u.

Further values, each from its own experiment
PhoQ, residues 284 288 289 292 302 303 TYGVAM — fold induction (PhoP, residues 12 14 15 18 19 NHFRA (Escherichia coli, UniProt P23836); Sort-seq, measured: YFP reporter; E. coli; PhoQ-PhoP variant library, together with: 10 µM Mg2+; baseline: high Mg2+ state, higher = stronger signaling): 3.33

For quick reference, copied from above (series 2):
ACATACCA: 0.0276
TAGGGGGA: -0.0694
